Results of several laboratories.
Numbered parts are unrelated; each lists some results of a single study.

Sample 1
Target: Replicase polyprotein 1ab, nsp13 helicase (rep, Severe acute respiratory syndrome coronavirus 2, UniProt P0DTD1)
Mode: inhibitor
Tested at: 20 µM
With `NCc1ccccc1CC(=O)N[C@@H]1C(=O)N2C(C(=O)O)=C(CSc3nnnn3CC(=O)O)CS[C@H]12` the inhibition was 36.2%.
The inhibition of `Nc1nc(OCC2CCCCC2)c2[nH]cnc2n1` is reported as 0.3%.
`CCOC(=O)C1=C[C@]2(CC)CCCN3CCc4c(n1c1ccccc41)[C@@H]32` has an inhibition of 4.96%.
The inhibition of `NC(=O)CN1C=CCC(C(N)=O)=C1` is reported as 2.94%.
With `CC(C)COc1ccc(CNC(=O)N(Cc2ccc(F)cc2)C2CCN(C)CC2)cc1` the inhibition was 6.55%.
With `Cc1ccccc1N=Nc1ccc(NC(=O)c2ccnn2C)c(C)c1` the inhibition was 2.17%.
For `COc1cc2c(c(OC)c1OC)-c1c(cc3c(c1OC)OCO3)C[C@H](C)[C@H](C)C2`, the inhibition was 2.3%.
`C#C[C@]1(O)CC[C@H]2[C@@H]3CCC4=CC(=O)CC[C@]4(C)[C@H]3CC[C@@]21C` gave an inhibition of -2.32%.
For `CC[C@]12CCCN3CCc4c(n(c5ccccc45)[C@@](O)(C(=O)OC)C1)[C@@H]32`, the inhibition was 4%.
For `Cc1cc(C(=O)Nc2cccc(C(=O)Nc3cccc(C(F)(F)F)c3)c2)on1`, the inhibition was -0.04%.
For `CC(=O)N[C@H]1[C@@H](O)[C@H](O)[C@@H](CO)O[C@@H]1O`, the inhibition was 7.36%.
`CN1C(=O)COc2c(C(=O)NC3CN4CCC3CC4)cc(Cl)cc21` (stereo not shown) gave an inhibition of 3.89%.
For `CCC(=O)O[C@]1(C(=O)CCl)[C@@H](C)C[C@H]2[C@@H]3C[C@H](F)C4=CC(=O)C=C[C@]4(C)[C@@]3(F)[C@@H](O)C[C@@]21C`, the inhibition was 8.37%.
For `COc1cc(Nc2ncc(F)c(Nc3ccc4c(n3)NC(=O)C(C)(C)O4)n2)cc(OC)c1OC`, the inhibition was 6.59%.
`Cc1ccccc1N1CCN(CCc2nnc3n2CCCC3)CC1` has an inhibition of 1.68%.
`COC(=O)C1=C(C)N(C)C(C)=C(C(=O)OC)C1c1ccc(C(F)(F)F)cc1` gave an inhibition of -0.53%.
With `CC(C)Cc1sc(N)nc1-c1ccc(P(=O)(O)O)o1` the inhibition was 4.06%.
For `CC(=O)O[C@H]1C[C@@]2(C)[C@@H](C[C@@H](O)[C@H]3[C@@]4(C)CC[C@@H](O)[C@@H](C)[C@@H]4CC[C@@]32C)/C1=C(\CCC=C(C)C)C(=O)O`, the inhibition was 6.36%.
For `CCS(=O)(=O)c1ccc2oc(-c3ccc4ccccc4c3)nc2c1`, the inhibition was -3.33%.
`CCCc1c(OCC(O)COc2ccc3c(=O)cc(C(=O)O)oc3c2CCC)ccc(C(C)=O)c1O` (stereo not shown) has an inhibition of 18.4%.
With `CCOc1ccc(NC(=O)CC(C)O)cc1` (stereo not shown) the inhibition was 5.57%.
`O=C(CCCCC(=O)Nc1c(I)cc(I)c(C(=O)O)c1I)Nc1c(I)cc(I)c(C(=O)O)c1I` has an inhibition of -2.46%.
With `CCCCOC(=O)c1ccc(N)cc1` the inhibition was -2.99%.
For `OCCCNc1cc(-c2ccnc(Nc3cccc(Cl)c3)n2)ccn1`, the inhibition was 3.66%.
For `CCN(Cc1ccccc1)C(=O)Cn1c(=O)n(C)c2cnc(-c3ccccc3)nc21`, the inhibition was 2.81%.

Sample 2
Target: Ras GTPase-activating protein-binding protein 1, full length (G3BP1, Homo sapiens, UniProt Q13283)
UniProt Q13283, sequence (whole entry, looked up): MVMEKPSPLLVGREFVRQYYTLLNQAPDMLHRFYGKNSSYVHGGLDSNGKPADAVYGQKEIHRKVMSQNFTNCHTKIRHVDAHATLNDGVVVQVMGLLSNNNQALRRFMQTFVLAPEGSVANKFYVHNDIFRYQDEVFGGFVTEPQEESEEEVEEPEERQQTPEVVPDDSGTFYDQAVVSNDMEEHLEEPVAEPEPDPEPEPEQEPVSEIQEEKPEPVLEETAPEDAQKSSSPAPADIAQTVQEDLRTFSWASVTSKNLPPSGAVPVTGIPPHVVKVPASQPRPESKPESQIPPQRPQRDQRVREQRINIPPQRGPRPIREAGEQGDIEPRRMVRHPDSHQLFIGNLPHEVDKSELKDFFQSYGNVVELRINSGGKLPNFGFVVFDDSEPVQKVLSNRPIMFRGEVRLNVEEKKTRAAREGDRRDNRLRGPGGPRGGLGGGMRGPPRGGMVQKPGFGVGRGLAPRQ
Technique: RNA Bind-n-Seq
Form: RNA
Sample: in vitro
Tested at: 200 nM
Setting: whole 134-nt RNA, ends assumed
Added: 150 mM LiCl
Baseline: input library
Direction: higher = stronger binding
Each molecule: 7-deaza-guanosine replaces G
Shared flanks, not repeated: GGGAGUUCUACAGUCCGACGAUC … UGGAAUUCUCGGGUGUCAAGG
`UCCUGUGCUACACAUCGUAUGUACCGAAUCGGGGUUUUUUUGGGGUGGGGAAAAAGGGGAAAGUAUUAUGUUACGCCGUUCGGAUCUGCA` has a log2 enrichment of -0.614.
`AGUCCUGUGCUACACAUCGUAUGUACCGAAUCGGGGUUUUGGUUUUGGGUUUUGGGGAAAGUAUUAUGUUACGCCGUUCGGAUCUGCACU` gave a log2 enrichment of -0.119.
`CACAGACAACACGCACCCGCACAGACACAGAGGGAAGGGGUUGGGAUGGGGACAGGGUGCACAGCAGGGCGGGGUAGGACCCCAGCCCCU` has a log2 enrichment of 0.217.
With `UCCUGUGCUACACAUCGUAUGUACCGAAUCGGGAAAAAAAGGGUUUUUGGGAAAAAGGGAAAGUAUUAUGUUACGCCGUUCGGAUCUGCA` the log2 enrichment was -0.83.
For `CACAGACAACACGCACCCACACAGACACAGAGGGAAGGGGUUAAAAUGGGGACAGGGUGCACAGCAGGGCGGGGUAGGACCCCAGCCCCU`, the log2 enrichment was -0.599.
With `GUCCUGUGCUACACAUCGUAUGUACCGAAUCGGGGUUUUUGGGUUUUUGGUUUUUGGGGAAAGUAUUAUGUUACGCCGUUCGGAUCUGCA` the log2 enrichment was -0.927.
For `UCAAGUCCUGUGCUACACAUCGUAUGUACCGAAUCGGAAAGGAGGAAAAAAAGGAAAGUAUUAUGUUACGCCGUUCGGAUCUGCACUUCC`, the log2 enrichment was -0.11.
`UGGGAGGUGGAUUUUGUUUAUUUUUUUAGCUCAUUUCCAGGGGUGGGAAUUUUUUUUUAAUAUGUGUCAUGAAUAUAGUUGUUUUUGAAA` has a log2 enrichment of -0.257.

Sample 3
Target: Replicase polyprotein 1ab, main protease (rep, Severe acute respiratory syndrome coronavirus 2, UniProt P0DTD1)
Effect on: enzyme activity
Mode: inhibitor
Tested at: 20 µM
Setting: hit confirmation
`Cc1ccnc2c1CCCC2C(N)=S` (stereo not shown) has an inhibition of -4.7%.
For `CC1(C)CC[C@]2(C(=O)O)CC[C@]3(C)[C@H](C(=O)C=C4[C@@]5(C)C=C(C#N)C(=O)C(C)(C)[C@@H]5CC[C@]43C)[C@@H]2C1`, the inhibition was -1.9%.
`O=C(c1cccs1)c1no[n+]([O-])c1C(=O)c1cccs1` has an inhibition of 108%.
`C/C(=N\NC(=N)N)c1cc(NC(=O)CCCCCCCCC(=O)Nc2cc(/C(C)=N/NC(=N)N)cc(/C(C)=N/NC(=N)N)c2)cc(/C(C)=N/NC(=N)N)c1` has an inhibition of 13.7%.

Sample 4
Cell line: HEK-293T/ACE2
Tested at: concentration not given
Time: 16 (unit not given)
Baseline: vehicle
`O=C(O)[C@@H](S)[C@@H](S)C(=O)O` gave a viability of 86.2%.
`CC(=O)O[C@]1(C(C)=O)CC[C@H]2[C@@H]3C=C(C)C4=CC(=O)CC[C@]4(C)[C@H]3CC[C@@]21C` gave a viability of 98.8%.
For `CCN(CC)C(=O)[C@@]1(c2ccccc2)C[C@H]1CN`, the viability was 104%.
The viability of `c1ccc2c(CC3=NCCN3)cccc2c1` is reported as 93.1%.

Sample 5
Target: Histone acetyltransferase KAT6A, winged helix 2, GST fusion (KAT6A, Homo sapiens, UniProt Q92794, residues 85-181)
Technique: protein binding microarray
Form: double-stranded DNA, one strand shown
Sample: in vitro
Tested at: not given
Setting: 8-mer, flanks averaged, mean of 2 arrays, mostly near background
Baseline: not given
Direction: higher = stronger binding
Construct (chain): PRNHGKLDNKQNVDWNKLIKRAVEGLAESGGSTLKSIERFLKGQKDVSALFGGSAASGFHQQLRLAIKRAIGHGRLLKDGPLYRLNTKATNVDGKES
With `AGGCTCGA` the E-score was 0.0027.
The E-score of `ACTAGAGT` is reported as -0.0581.
`TCCCCCAA` gave an E-score of -0.074.
`ACTGGCGA` has an E-score of 0.0125.
`ACCGCTGC` gave an E-score of 0.0306.
The E-score of `AGCTTCGA` is reported as 0.0376.
For `AATTGGTA`, the E-score was -0.119.
For `ATGCGTTG`, the E-score was -0.0148.

Sample 6
Target: Transcriptional repressor CTCF (CTCF, Homo sapiens, UniProt P49711, residues 1-727, full length assumed)
Technique: protein-binding microarray
Form: double-stranded DNA, one strand shown
Sample: in vitro
Tested at: not given
Setting: k-mer, scored over probes, only values ≥0.25
Direction: higher = stronger binding
Construct (chain): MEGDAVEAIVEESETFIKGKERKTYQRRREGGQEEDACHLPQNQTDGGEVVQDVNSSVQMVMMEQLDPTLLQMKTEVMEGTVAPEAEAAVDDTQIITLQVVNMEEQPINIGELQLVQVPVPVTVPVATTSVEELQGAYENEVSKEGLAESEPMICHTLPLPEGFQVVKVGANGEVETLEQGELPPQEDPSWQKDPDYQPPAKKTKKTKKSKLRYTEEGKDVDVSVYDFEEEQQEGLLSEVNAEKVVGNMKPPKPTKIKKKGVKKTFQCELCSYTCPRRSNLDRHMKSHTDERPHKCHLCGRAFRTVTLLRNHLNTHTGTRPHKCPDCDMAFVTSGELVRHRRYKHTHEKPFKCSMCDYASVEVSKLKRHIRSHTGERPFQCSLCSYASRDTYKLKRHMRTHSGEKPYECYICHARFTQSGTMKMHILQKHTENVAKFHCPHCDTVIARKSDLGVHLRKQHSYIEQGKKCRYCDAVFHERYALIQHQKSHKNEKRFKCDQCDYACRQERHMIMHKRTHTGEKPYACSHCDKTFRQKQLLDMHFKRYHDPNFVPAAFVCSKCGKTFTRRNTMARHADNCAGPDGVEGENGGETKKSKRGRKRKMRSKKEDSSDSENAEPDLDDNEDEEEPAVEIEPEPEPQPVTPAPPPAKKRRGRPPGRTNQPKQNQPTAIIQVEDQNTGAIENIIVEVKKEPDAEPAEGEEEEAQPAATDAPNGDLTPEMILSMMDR
`ACAATAAA` has an E-score of 0.258.
`CAACAAAA` gave an E-score of 0.286.
The E-score of `AAATTATG` is reported as 0.331.
`GTAATACA` has an E-score of 0.281.
The E-score of `ATACAATG` is reported as 0.302.
The E-score of `ATAATACA` is reported as 0.344.

For quick reference, copied from above (sample 3):
`Cc1ccnc2c1CCCC2C(N)=S` (stereo not shown) has an inhibition of -4.7%.
For `CC1(C)CC[C@]2(C(=O)O)CC[C@]3(C)[C@H](C(=O)C=C4[C@@]5(C)C=C(C#N)C(=O)C(C)(C)[C@@H]5CC[C@]43C)[C@@H]2C1`, the inhibition was -1.9%.
`O=C(c1cccs1)c1no[n+]([O-])c1C(=O)c1cccs1` has an inhibition of 108%.
`C/C(=N\NC(=N)N)c1cc(NC(=O)CCCCCCCCC(=O)Nc2cc(/C(C)=N/NC(=N)N)cc(/C(C)=N/NC(=N)N)c2)cc(/C(C)=N/NC(=N)N)c1` has an inhibition of 13.7%.
